# Experimental data pooled from the literature.
# A part holds a random share of what one study measured. Positions count from the first letter of the parent shown.

# Block 1
# Target: JUN, bZIP domain (human)
# Technique: DHFR protein complementation
# Medium: yeast
# Setting: single substitutions, most at no-binding floor
# Relative to: wild-type JUN-FOS pair
# Direction: higher = stronger binding
# Parent: JUN, bZIP domain (human); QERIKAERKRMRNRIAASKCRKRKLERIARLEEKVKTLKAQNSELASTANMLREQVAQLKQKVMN; partner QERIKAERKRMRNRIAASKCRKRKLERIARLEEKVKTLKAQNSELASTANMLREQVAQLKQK
Change,binding fitness [natural log]
I28A,-0.728
Q41T,-0.463
N42K,-0.721
I28K,-0.95
E44V,-0.334
K39A,-0.392
R53W,-1.08
K36V,-0.347
K34E,0.023
Q55L,-0.465
Q41E,-0.134
R53G,-0.817
S43T,-0.109
M51E,-0.142
N42E,-0.957

# Block 2
# Target: ABI1, truncated, D143A, DHFR fusion (Arabidopsis thaliana)
# Technique: DHFR PCA, deep sequencing
# Medium: yeast
# Setting: methotrexate growth selection, single substitutions
# Added: (+)-ABA 0.11 µM
# Relative to: wild-type fitted maximum
# Direction: higher = stronger binding
# Parent: PYL1, truncated, DHFR fusion (Arabidopsis thaliana); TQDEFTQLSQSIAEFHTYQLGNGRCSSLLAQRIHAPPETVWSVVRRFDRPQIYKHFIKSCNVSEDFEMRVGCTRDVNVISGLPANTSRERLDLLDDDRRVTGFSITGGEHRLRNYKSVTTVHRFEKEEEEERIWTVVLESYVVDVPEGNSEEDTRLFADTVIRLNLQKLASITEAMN
Change,relative binding score [%]
L138Q,-4.58
N22T,40
S27P,-6.01
E152S,16.2
I12P,0.118
G71Y,-1.59
V143Y,-9.65
E147W,-0.685
I12W,-4.94
A170C,13.7
D75C,21.5
E130K,39.9
N177T,46.9
L138N,-3.14
L164G,6.95
E127Y,24.7
T17L,-10.4

# Block 3
# Target: RNA binding protein fox-1 homolog 2, RRM domain, GST-SBP tag (RBFOX2, Homo sapiens, UniProt O43251-10, residues 100-194)
# Technique: RNA Bind-n-Seq
# Form: RNA
# Medium: in vitro
# Concentration: 365 nM
# Setting: natural RNA segment, single round, ends assumed
# Relative to: no-protein control
# Direction: higher = stronger binding
# Shared flanks, not repeated: GGGAGUUCUACAGUCCGACGAUC … UGGAAUUCUCGGGUGCCAA
# Residues (chain): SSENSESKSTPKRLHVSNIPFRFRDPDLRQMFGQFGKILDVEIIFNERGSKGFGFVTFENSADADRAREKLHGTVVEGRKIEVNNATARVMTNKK
Sequence,RBNS enrichment (R)
CGGGUCCAUGAGGAGCUUGAGGGCCAGAGUGUCAGGCCUGACCUCAGACACAAAGGCCCCUCGGCUGGGGGGCAGUGGGCAUGGAGCUGGCCUGCUAACAGCCCCCCGAU,0.531
AGUGUGUGCUCUUCCUUCCUUAAAACCUUUAGAUGUCCUGUUACACUAACACAGGUCUUCCCUUCCCUCCAACCCCAGGUUUCAGGUCUCAGAGCCAAGCCAGGGUUGGA,0.352
GAAUUUGAUGAAGAGCAGUCUUCCUCUGCUGCCCUUUACUAAGCAAAACCUGGAGCAAUUUAAAUAGGCUAAAUGGUUUUGAUUAAAUCUUGAGCUCCGAGUUGGAAGGA,0.305
UGCUGAACUGACAUGAACAACCGAGAAUGUCCUUCUUGGUUGUCAAAAGACAGUUUUCCAUCCUACAGUAAUUGGGAUGAAGAACAAAACAGUUGAUCCUUGUAAAUACA,0.244
AAAAAAUAAAAACAAGAAUUUGGUCUAAGACCAUACAGCAGAUUGAUAUGCUGGCACAGAUUUGUUCAGAAGUGGACAGAGACUUACAAGGUAGAGUAUCCCAAUGAGAG,0.599
UCAAGAGAUUGCCACUCUCAUAGGUAAACAUGAGGAAAACAGGAAAAGUUUGCUUCUUUUUAUUGAUGGUUCCAAAGAAACAAACCAAAUCUACCAGCUCUUGGAUGAAG,0.339
CAGGUCUGGGUAUUGCUCCUGCCCAGACCCUGACAUCCCUUUCCACUGUGUGUGUGACCAUGCUGGGGGAGGGGGACUCUGCUUGGAAUUAAAAGGUUGCAUUGGGUCCC,0.542
GUAGAAGACUUUCUGUUGAACUACUUAUAAGAAAGUAAAAUAAAUAUUGUCUUUUUGUAUGUCACCCAAAUGCUUUUUUUUUUGGUCUUAUUUUUUGGGGAAGCGUUGUG,1.28

# Block 4
# Target: Histone acetyltransferase KAT6A, both winged helices, GST fusion (KAT6A, Homo sapiens, UniProt Q92794, residues 1-181)
# Technique: protein binding microarray
# Form: double-stranded DNA, one strand shown
# Medium: in vitro
# Concentration: not given
# Setting: 8-mer, flanks averaged, mean of 2 arrays, mostly near background
# Relative to: not given
# Direction: higher = stronger binding
# Target sequence (chain): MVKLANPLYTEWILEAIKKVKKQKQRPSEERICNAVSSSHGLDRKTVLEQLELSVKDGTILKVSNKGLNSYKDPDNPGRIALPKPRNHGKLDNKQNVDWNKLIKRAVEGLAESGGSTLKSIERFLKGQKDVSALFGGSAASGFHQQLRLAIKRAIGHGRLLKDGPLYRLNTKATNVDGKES
Sequence,E-score
CCAGCCTA,-0.127
ACATCTCA,-0.00328
ACCTTGAG,-0.0584
ACAAGGCG,0.117
CAGGCGAG,-0.15
CTGTTCGC,0.166
AAGGCATA,-0.249
AGGCCTGG,-0.0637
GCTCTCAA,-0.0343
AGTTAGGG,-0.155
AACACCAG,-0.18
AACTACAA,0.00186
GCTGCCTA,-0.179
CGCTTCCA,0.086
CAGCGATC,0.137
CGCGTATC,0.276

# Excerpt of the above (block 1):
Change,binding fitness [natural log]
I28K,-0.95
R53W,-1.08
Q55L,-0.465
K36V,-0.347
R53G,-0.817
K39A,-0.392
Q41T,-0.463
K34E,0.023
N42E,-0.957
